Measured values gathered from unrelated publications.
Numbered parts are unrelated; each lists some results of a single study. Substitutions count along the parent as printed.

Set 1
Target: Sal-like protein 4, full length isoform B (SALL4, Homo sapiens, UniProt Q9UJQ4-2, residues 1-616)
Technique: universal PBM
Form: double-stranded DNA, one strand shown
Medium: in vitro
Concentration: not given
Notes: 8-mer, flanks averaged, mean of replicates
Reading: higher = stronger binding
Oligonucleotide | E-score
ACTCTTCC | 0.0233
AGCCTGCG | -0.26
CGAGTCAC | -0.221
CAACATAC | 0.203
ACTGGCCG | -0.32
ATCCCGTC | -0.172
CGCTGTAC | -0.0389
TCGTTAAA | 0.141
ACCCTAAA | -0.0699
ATCGATGA | 0.103
ATCGGCAA | -0.0597
AAGATTGC | 0.0954

Set 2
Target: CCNB2, cyclin fold, Cln2 fusion (human)
Technique: yeast growth competition, sequencing
Medium: yeast
Notes: weak parent motif
Relative to: not given
Reading: higher = stronger binding
Parent: DBF4B docking peptide (human); LGYLYLLLTQSLW
Substitution | normalised enrichment score
LGYLYLLLTQSAW [L12A] | 0.0299
LGYLYALLTQSLW [L6A] | 0.16
LGYLYLLLTQSLA [W13A] | 0.143
LGYLYLLLTQALW [S11A] | 0.54
LGALYLLLTQSLW [Y3A] | 0.105
LGYLYLALTQSLW [L7A] | -0.22

Set 3
Target: FOSL2, bZIP domain (human)
Technique: DHFR protein complementation
Medium: yeast
Notes: single substitutions, most at no-binding floor
Relative to: wild-type JUN-FOS pair
Reading: higher = stronger binding
Parent: JUN, bZIP domain (human); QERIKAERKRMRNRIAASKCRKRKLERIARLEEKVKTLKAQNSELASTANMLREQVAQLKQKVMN; partner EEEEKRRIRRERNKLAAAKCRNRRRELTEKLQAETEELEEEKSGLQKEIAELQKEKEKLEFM
Substitution | binding fitness [natural log]
E32P | -0.95
K36P | -1.26
I28V | 0.0564
R53N | -0.612
K39W | -0.83
A40Q | 0.255
K34E | -0.049
A46L | 0.0467
A46R | 0.165
L31H | -0.382

Further values, each from its own experiment
Substance | target | assay | test system | conditions | scale | endpoint | result
PhoQ, residues 284 288 289 292 302 303 GNNTDL | PhoP, residues 12 14 15 18 19 GQAIL (Escherichia coli, UniProt P23836) | Sort-seq, item: YFP reporter | E. coli | PhoQ-PhoP variant library, together with: 10 µM Mg2+ | relative to: high Mg2+ state, higher = stronger signaling | fold induction | 4.01

Repeated from above (set 1):
Oligonucleotide | E-score
CGAGTCAC | -0.221
CAACATAC | 0.203
ACCCTAAA | -0.0699
CGCTGTAC | -0.0389
